Measured values from different studies.
Each line is one published result; not all experiments were run side by side. Several values in a cell are separate wells, animals, samples, runs or records. ± marks the error that the study gave.
EPHX2: Bifunctional epoxide hydrolase 2 (EPHX2, Homo sapiens, UniProt P34913)
Chain of UniProt P34913 (whole entry, looked up): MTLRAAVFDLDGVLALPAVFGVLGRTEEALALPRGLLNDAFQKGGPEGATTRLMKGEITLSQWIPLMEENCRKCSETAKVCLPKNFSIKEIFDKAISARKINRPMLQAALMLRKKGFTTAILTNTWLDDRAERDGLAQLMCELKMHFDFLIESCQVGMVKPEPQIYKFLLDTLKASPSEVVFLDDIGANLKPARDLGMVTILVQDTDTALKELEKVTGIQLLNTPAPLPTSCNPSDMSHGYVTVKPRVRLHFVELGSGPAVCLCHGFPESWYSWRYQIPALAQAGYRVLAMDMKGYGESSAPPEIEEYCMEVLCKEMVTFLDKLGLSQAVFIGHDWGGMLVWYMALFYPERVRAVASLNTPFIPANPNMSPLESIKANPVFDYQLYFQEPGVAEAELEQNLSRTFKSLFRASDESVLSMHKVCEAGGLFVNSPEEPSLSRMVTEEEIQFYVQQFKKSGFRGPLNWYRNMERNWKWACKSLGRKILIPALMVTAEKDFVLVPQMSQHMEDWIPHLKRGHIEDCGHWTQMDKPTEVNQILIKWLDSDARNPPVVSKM
MGLL: Monoglyceride lipase (MGLL, Homo sapiens, UniProt Q99685)
Chain of UniProt Q99685 (whole entry, looked up): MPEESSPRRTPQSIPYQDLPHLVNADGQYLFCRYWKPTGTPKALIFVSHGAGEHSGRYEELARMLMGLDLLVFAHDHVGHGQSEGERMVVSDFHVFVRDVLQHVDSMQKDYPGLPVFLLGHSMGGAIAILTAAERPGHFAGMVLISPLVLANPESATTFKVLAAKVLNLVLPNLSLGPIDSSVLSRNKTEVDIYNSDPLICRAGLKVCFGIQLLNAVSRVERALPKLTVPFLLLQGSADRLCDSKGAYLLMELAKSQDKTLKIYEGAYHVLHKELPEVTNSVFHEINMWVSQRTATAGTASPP
CDPK1: Calcium-dependent protein kinase 1 (CDPK1, Plasmodium falciparum, UniProt P62344)
Tpo: Thyroid peroxidase (Tpo, Rattus norvegicus, UniProt P14650)
Chain of UniProt P14650 (whole entry, looked up): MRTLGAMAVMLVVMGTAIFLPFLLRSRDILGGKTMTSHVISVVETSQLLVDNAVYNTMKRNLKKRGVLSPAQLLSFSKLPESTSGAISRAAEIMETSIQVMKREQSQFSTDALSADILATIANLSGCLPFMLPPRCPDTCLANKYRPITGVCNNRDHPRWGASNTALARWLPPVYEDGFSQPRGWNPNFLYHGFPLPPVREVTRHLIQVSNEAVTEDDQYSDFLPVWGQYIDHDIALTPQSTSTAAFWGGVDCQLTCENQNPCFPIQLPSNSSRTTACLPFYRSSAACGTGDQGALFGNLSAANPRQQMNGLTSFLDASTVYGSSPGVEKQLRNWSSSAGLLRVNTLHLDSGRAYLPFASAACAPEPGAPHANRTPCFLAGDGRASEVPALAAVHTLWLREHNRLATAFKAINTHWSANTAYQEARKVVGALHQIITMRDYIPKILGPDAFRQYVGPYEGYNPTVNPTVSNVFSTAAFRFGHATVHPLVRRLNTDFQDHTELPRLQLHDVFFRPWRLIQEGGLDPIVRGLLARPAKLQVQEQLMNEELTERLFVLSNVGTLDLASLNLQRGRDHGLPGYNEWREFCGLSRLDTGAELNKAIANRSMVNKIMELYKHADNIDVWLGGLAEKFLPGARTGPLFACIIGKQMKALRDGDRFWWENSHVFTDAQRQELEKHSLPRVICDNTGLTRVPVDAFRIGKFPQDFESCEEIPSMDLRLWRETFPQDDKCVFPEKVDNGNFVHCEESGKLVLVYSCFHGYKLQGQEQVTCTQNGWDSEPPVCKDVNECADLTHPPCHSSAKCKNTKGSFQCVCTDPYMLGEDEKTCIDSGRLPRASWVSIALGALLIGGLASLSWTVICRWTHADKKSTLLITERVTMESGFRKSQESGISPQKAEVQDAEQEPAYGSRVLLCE
gag-pol integrase: Gag-Pol polyprotein, integrase (gag-pol, Human immunodeficiency virus 1, UniProt P12497)
CACNA1I: Voltage-dependent T-type calcium channel subunit alpha-1I (CACNA1I, Homo sapiens, UniProt Q9P0X4)
Chain of UniProt Q9P0X4 (whole entry, looked up): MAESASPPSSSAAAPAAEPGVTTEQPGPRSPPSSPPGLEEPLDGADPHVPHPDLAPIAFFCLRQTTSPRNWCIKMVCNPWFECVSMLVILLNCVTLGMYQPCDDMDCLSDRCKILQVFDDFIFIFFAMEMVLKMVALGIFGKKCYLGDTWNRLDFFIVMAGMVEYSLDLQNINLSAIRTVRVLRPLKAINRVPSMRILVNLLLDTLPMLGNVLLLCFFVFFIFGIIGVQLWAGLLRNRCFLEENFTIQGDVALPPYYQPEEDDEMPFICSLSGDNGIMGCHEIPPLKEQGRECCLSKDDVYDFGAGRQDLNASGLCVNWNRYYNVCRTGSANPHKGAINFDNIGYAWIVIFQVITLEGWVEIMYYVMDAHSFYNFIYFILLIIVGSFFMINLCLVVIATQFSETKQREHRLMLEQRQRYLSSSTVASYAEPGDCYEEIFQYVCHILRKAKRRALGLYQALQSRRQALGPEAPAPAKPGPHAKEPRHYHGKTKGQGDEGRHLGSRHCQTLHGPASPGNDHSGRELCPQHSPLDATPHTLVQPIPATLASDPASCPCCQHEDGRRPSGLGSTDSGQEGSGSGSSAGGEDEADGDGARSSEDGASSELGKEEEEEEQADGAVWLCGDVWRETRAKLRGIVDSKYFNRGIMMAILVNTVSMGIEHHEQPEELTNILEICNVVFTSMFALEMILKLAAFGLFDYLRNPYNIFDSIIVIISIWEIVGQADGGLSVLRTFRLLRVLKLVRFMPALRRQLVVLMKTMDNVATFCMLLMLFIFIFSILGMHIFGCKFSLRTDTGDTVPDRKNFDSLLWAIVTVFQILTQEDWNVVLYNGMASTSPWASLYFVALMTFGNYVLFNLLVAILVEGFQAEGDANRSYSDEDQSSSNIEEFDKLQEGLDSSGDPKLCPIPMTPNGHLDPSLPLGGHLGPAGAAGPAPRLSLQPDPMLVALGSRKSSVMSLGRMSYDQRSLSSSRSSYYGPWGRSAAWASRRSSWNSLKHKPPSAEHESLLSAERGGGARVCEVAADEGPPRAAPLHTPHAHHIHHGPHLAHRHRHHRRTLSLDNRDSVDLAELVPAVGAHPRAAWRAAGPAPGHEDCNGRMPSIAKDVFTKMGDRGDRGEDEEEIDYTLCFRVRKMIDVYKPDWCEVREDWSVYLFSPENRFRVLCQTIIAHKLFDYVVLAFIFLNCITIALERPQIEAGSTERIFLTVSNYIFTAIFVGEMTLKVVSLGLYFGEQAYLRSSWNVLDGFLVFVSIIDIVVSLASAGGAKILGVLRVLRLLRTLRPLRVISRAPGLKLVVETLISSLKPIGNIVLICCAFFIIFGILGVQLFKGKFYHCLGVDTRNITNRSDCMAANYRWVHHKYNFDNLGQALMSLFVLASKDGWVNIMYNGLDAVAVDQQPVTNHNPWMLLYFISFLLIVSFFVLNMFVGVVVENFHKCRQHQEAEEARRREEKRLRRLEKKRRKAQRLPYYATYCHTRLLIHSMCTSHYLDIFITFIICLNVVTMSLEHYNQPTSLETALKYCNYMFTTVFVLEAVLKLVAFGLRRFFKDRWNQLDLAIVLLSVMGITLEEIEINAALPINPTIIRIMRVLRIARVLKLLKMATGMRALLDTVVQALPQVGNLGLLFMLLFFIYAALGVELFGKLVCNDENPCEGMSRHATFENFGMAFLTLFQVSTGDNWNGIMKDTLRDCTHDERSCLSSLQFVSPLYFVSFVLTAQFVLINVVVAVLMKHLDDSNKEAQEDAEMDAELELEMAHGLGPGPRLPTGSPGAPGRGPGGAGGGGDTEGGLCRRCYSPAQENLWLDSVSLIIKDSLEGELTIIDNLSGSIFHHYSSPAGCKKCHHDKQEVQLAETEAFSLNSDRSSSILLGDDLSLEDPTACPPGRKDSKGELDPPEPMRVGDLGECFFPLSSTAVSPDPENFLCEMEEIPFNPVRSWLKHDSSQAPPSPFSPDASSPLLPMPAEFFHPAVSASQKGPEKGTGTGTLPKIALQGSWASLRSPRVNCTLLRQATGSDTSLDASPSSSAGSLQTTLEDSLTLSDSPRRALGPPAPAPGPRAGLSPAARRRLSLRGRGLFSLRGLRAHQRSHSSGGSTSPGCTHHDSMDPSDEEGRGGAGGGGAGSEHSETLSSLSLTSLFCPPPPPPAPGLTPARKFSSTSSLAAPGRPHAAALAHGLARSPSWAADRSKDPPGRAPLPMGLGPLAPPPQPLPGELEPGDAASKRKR
HDAC6: Protein deacetylase HDAC6 (HDAC6, Homo sapiens, UniProt Q9UBN7)
Chain of UniProt O00329 (whole entry, looked up): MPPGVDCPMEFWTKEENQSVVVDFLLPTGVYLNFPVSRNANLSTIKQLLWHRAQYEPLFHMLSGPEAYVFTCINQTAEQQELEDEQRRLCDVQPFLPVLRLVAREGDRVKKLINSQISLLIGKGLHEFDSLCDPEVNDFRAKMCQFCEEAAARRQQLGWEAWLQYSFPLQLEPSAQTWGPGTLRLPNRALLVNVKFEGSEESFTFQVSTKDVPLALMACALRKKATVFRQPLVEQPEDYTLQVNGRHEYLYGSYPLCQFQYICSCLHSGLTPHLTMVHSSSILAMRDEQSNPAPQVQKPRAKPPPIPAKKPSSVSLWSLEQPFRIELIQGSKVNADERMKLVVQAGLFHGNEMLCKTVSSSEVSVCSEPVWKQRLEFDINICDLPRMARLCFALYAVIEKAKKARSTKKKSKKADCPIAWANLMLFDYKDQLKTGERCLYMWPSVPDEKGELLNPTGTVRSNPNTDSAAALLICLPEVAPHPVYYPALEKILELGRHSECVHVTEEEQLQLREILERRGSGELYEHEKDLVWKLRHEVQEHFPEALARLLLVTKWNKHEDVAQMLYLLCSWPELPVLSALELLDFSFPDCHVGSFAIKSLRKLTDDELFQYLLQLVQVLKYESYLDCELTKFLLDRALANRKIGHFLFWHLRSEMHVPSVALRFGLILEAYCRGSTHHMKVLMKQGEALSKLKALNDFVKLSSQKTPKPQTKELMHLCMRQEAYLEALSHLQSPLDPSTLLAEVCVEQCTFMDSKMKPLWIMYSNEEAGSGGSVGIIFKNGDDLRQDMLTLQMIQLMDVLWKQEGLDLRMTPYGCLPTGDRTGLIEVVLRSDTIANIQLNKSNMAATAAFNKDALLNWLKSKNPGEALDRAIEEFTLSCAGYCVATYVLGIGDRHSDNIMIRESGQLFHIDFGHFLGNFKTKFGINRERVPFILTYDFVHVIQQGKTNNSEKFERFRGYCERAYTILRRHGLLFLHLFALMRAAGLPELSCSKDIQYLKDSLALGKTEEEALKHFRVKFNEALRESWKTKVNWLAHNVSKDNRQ

SMILES	target	assay	system	conditions	IC50
COc1ccc(C(/C=C/CN2CCC[C@@H]2[C@H](O)C(=O)O)(c2ccc(OC)cc2)c2ccc(OC)cc2)cc1	SLC6A11 (Homo sapiens, UniProt P48066)	GABA uptake, inhibitor	HEK-293T	30 min preincubation	4.5 µM
C[C@]12C[C@@H]3C[C@](C)(C1)C[C@@](NC(=O)Nc1ccc(C(=O)N4CCC[C@H](C(=O)NCCCCCCC(=O)NO)C4)cc1Cl)(C3)C2	EPHX2	enzyme activity, inhibitor, fluorescence	–	–	0.0005 µM
Cn1ccc2cc(NC(=O)Nc3cccnc3)ccc21	human MBNL1	CUG repeat RNA binding, inhibitor, HTRF	–	with: biotin-(CUG)12 RNA	20 µM
NC(=O)c1cccc(-c2cc(OC(=O)NC3CCCCC3)ccc2O)c1	EPHX2	enzyme activity, inhibitor, fluorescence	–	pH 7.4	7.18 µM
CSc1nccc(C(=O)N[C@@H](CCC(=O)O)C(=O)N[C@@H](Cc2ccc3ccccc3c2)C(=O)N[C@@H](CC(C)C)C(=O)NC2CC2c2ccccc2)n1 (stereo partly shown)	Adenomatous polyposis coli protein, with Asef (APC, Homo sapiens, UniProt P25054)	binding, fluorescence polarization competition	–	–	0.67 µM
Cc1ccc2c(ccn2CC2CCN(C(=O)OC(C(F)(F)F)C(F)(F)F)CC2)c1	MGLL	enzyme activity, inhibitor	–	–	0.9 µM
CCCCCCCC(=O)OC[C@H](CO)OC(=O)CCCCCCC	CNGA1 (Bos taurus, UniProt Q00194)	cGMP-activated current, inhibitor, inside-out patch, Xenopus oocytes	–	single patch, with: cGMP 30 µM	0.41 µM
C[C@@H](CNCc1ccccc1)N1C[C@H](CCCNC(=N)N)N(CCc2cccc(F)c2)C1=S	nicotinic acetylcholine receptor	binding, radioligand displacement	–	–	> 1 µM
COc1ccc(-c2cn(CCC3CCN(C(=O)OC(C)(C)C)CC3)c3ncnc(N)c23)cc1OC	CDPK1	enzyme activity, inhibitor	–	–	> 2 µM
O=C(Cc1ccccc1F)Nc1cccc(-c2nnc(C3CCCCC3)o2)c1	α-amylase	enzyme activity, inhibitor	–	–	6.51 µM
COc1cc(CCC(=O)CC(=O)CCc2ccc(O)c(OC)c2)ccc1O	Tpo	enzyme activity, inhibitor, LC-MS/MS, refers to: monoiodotyrosine	rat thyroid microsomes	with: L-tyrosine substrate	1.67 µM and 1.32 µM
O=S(=O)(NCCNCC=Cc1ccc(Br)cc1)c1cccc2cnccc12	cGMP-dependent protein kinase 1, isoform alpha (PRKG1, Bos taurus, UniProt P00516)	kinase activity, inhibitor, radiometric	–	with: ATP 100 µM and peptide 11 µM and cGMP	0.055 µM
O=C1/C(=C/c2ccccc2)C(NC2CCCCC2)c2cc(Br)ccc21 (stereo not shown)	Dual specificity protein phosphatase 6 (Homo sapiens, UniProt Q16828)	ERK phosphorylation restoration, inhibitor, chemical complementation	HeLa transfected with c-Myc-DUSP6	15 min, with: TPA	55.9 ± 8.6 µM
COc1ccc(-c2cn(CCN3CCOCC3)c3ncnc(N)c23)cc1OC	CDPK1	enzyme activity, inhibitor	–	–	> 2 µM
CC(C)(C)c1ccc(S(=O)(=O)Nc2cccc(-c3nnc(C4CCCCC4)o3)c2)cc1	α-amylase	enzyme activity, inhibitor	–	–	5.56 µM
CC(C)Oc1ccc(-c2c[nH]cc2C(=O)N(C)CCN)cc1	PRMT8 (Homo sapiens, UniProt Q9NR22)	enzyme activity, scintillation proximity	–	with: 3H-SAM	> 10 µM
CCC[C@H](NC(=O)CN1C(=O)SC(=Cc2ccc3c(c2)OCO3)C1=O)C(=O)OCC	α-amylase	enzyme activity, DNSA colorimetric	–	–	> 100 µM
COc1cc(CNC(=O)CCCC/C=C/C(C)C)ccc1O	CYP2C19 (Homo sapiens, UniProt P33261)	enzyme activity, inhibitor	human, liver microsomes	pH 7.4	12 µM and 11 µM
O=C(O[C@@H]1Cc2c(O)cc(O)cc2O[C@@H]1c1cc(O)c(O)c(O)c1)c1cc(O)c(O)c(O)c1	Tpo	enzyme activity, LC-MS/MS, refers to: monoiodotyrosine	rat thyroid microsomes	with: L-tyrosine substrate	0.32 ± 0.06 µM
O=C(O)/C(O)=C/C(=O)c1cn(Cc2ccc(F)cc2)c2ccc(F)cc2c1=O	gag-pol integrase	strand transfer, inhibitor, gel-based	–	with: Mg2+	0.14 µM
O=C(OC(C(F)(F)F)C(F)(F)F)N1CCC(Cn2cnc3ccccc32)CC1	MGLL	enzyme activity, inhibitor	–	–	0.78 µM
NC(=O)[C@@H]1CC[C@@H]2CN1C(=O)N2OS(=O)(=O)O	PA3047 (Pseudomonas aeruginosa, UniProt Q9HZG1)	binding, Bocillin FL competition	Pseudomonas aeruginosa 1771 membranes	PBP 4, with: Bocillin FL 100 µM	41.5 µM
C[C@]12C[C@@H]3C[C@](C)(C1)C[C@@](NC(=O)Nc1ccc(C(=O)N4CCC[C@H](C(=O)NCCCCC(=O)NO)C4)cc1F)(C3)C2	EPHX2	enzyme activity, inhibitor, fluorescence	–	–	0.0007 µM
COc1cc(/C=C/C(=O)O)ccc1O	firefly luciferase	ADP-Glo ADP processing, luminescence counter-screen	cell-free, no kinase	up to 77 µM, with: ADP 1.25 µM, ATP 11.25 µM	no inhibition
Nc1ccn([C@H]2CC[C@@H](COP(=O)(O)OP(=O)(O)OP(=O)(O)O)O2)c(=O)n1	POLA1 (Bos taurus, UniProt A0AAA9THK8)	enzyme activity, inhibitor, radiometric	–	–	1200 µM
CC(=O)N1CCN(C(=O)C2(NC(=O)Nc3ccc(F)cc3)CCCCC2)CC1	Endoplasmic reticulum aminopeptidase 1, open conformation (ERAP1, Homo sapiens, UniProt Q9NZ08)	enzyme activity, inhibitor, fluorogenic	–	partial inhibition, with: L-AMC substrate	> 200 µM

SMILES	target	assay	system	conditions	IC50
Cc1ccc2c(ccn2CCC2CCN(C(=O)OC(C(F)(F)F)C(F)(F)F)CC2)c1	MGLL	enzyme activity, inhibitor	–	–	0.85 µM
O=C(O)/C(O)=C/C(=O)c1c[nH]c2cc(Cl)ccc2c1=O	gag-pol integrase	3'-processing, inhibitor, gel-based	–	with: Mg2+	> 333 µM
CC(C)NCc1ccc(C[C@@H]2NC(=O)[C@@H](N(C)C(=O)c3ccc4ccccc4c3)NC(=O)[C@H](Cc3ccccc3)NC(=O)[C@@H](N)CSSC[C@@H](C(N)=O)NC(=O)[C@H](Cc3ccc(O)cc3)NC2=O)cc1	SSTR1 (Homo sapiens, UniProt P30872)	ligand displacement, radioligand	–	cell membranes	0.0073 µM and 0.006 µM
Cc1nc(N=Nc2cc(S(=O)(=O)O)c3cc([N+](=O)[O-])cc(S(=O)(=O)O)c3c2)c(COP(=O)(O)O)c(C=O)c1O	UBASH3B (Homo sapiens, UniProt Q8TF42)	enzyme activity, inhibitor, fluorescence	–	–	6.9 µM
C[C@@H](CC(=O)NCc1cccc2ccccc12)NC(=O)C[C@H](CC(=O)NC(C)(C)C)NC(=O)CCc1ccccc1	Proteasome component C5/PSMB5 (Homo sapiens, UniProt P20618+P28074)	chymotrypsin-like activity, inhibitor	–	with: suc-LLVY-AMC	> 100 µM
C=CC(C)(O)Cc1cc2cc(-c3ccc(O)cc3O)c(=O)oc2cc1O (stereo not shown)	RELA (Homo sapiens, UniProt Q04206)	NF-κB activity, inhibitor	–	–	0.34 µM
O=C1C=CC(O)(c2nc3ccccc3s2)C=C1	Thioredoxin-dependent peroxidase 2 (Trypanosoma brucei, UniProt D6XK31)	inhibitor	–	–	15.6 ± 1.3 µM
Cc1ccc(Oc2cccc(CC(=O)N3CCNc4nc(C(F)(F)F)ccc4[C@H]3CC(=O)O)c2)cn1	Neuromedin-B receptor (Nmbr, Mus musculus, UniProt O54799)	radioligand binding	BALB cells expressing mouse NMBR	60 min, 21 °C, with: 50 pM radioligand	> 3 µM
COc1ccc(CN2CCN(C(c3ccc(F)cc3)c3ccc(F)cc3)CC2)c(OC)c1OC	CACNA1I	inhibitor, FLIPR calcium	HEK293 with GCaMP6s-CAAX, Kir2.3	with: KCl at EC90	1.3 µM
OC1CCCc2ccc(OCc3ccccc3)cc21 (stereo not shown)	MAOB (Homo sapiens, UniProt P27338)	enzyme activity, inhibitor, fluorescence	–	–	0.249 µM
CC(=O)Oc1cc(-c2coc3cc(OC(C)=O)c(OC(C)=O)c(OC(C)=O)c3c2=O)cc(OC(C)=O)c1OC(C)=O	firefly luciferase	luminescence signal, luminescence counter-screen	cell-free, after ADP processing	up to 77 µM, with: ADP 1.25 µM, ATP 11.25 µM	no inhibition
Oc1cccnc1O	HDAC6	enzyme activity, inhibitor, SAMDI mass spectrometry	–	–	> 10 µM
O=C(COc1ccc(F)cc1F)Nc1cc(Cl)ccc1C(=O)O	TRPM4 (Homo sapiens, UniProt Q8TD43)	ion flux, inhibitor, fluorescence	–	–	3.4 µM
O=C(NNC(=O)c1ccc(CNS(=O)(=O)c2ccc(F)c(Cl)c2)cc1)c1ccccc1	Glutamate NMDA receptor; Grin1/Grin2a (Grin1/Grin2a, Rattus norvegicus, UniProt P35439+Q00959, M788I)	ion current, two-electrode voltage clamp	–	oocytes	1 µM
Nc1ncnc2c1ncn2[C@@H]1O[C@H](COP(=O)(O)OP(=O)(O)C(Cl)(Cl)P(=O)(O)O)[C@@H](O)[C@H]1O	FGFR2 (Homo sapiens, UniProt P21802)	enzyme activity, inhibitor, HotSpot kinase	–	with: ATP 1 µM	0.05 µM
O=C(NO)c1ccc(Cn2cnc3ccccc32)cc1	HDAC6	enzyme activity, inhibitor	–	–	0.029 µM
CC(C)(C)NC(=O)CN1CCC(CNC(=O)c2cc(F)cc(Cl)c2)CC1	CACNA1I	inhibitor, FLIPR calcium	HEK293 with GCaMP6s-CAAX, Kir2.3	with: KCl at EC90	0.11 µM
C[C@]12C[C@@H]3C[C@](C)(C1)C[C@@](NC(=O)Nc1ccc(CN4CCC[C@H](C(=O)NCCCC(=O)NO)C4)cc1F)(C3)C2	EPHX2	enzyme activity, inhibitor, fluorescence	–	–	0.001 µM
CCC(C)Oc1nc(N)nc(N)c1C#N (stereo not shown)	PIK3CD (Homo sapiens, UniProt O00329)	enzyme activity, inhibitor	–	–	10 to 20 µM and 12 µM and 14 µM
O=S(=O)(c1cc(C(=S)Nc2cc(F)c(F)c(F)c2)c(Cl)cc1Cl)N1CCOCC1	LPAR2 (Homo sapiens, UniProt Q9HBW0)	Ca2+ mobilization, antagonist	MEF	with: LPA at EC50	> 100 µM
O=C(OCC(F)(F)F)N1CC(N2CCN(C(=O)c3nccs3)CC2)C1	Monoglyceride lipase (Rattus norvegicus, UniProt Q8R431)	enzyme activity, inhibitor	–	with preincubation	> 1 µM
CC(C)[C@H]1c2ccc(F)cc2CC[C@@]1(CCN(C)CCCc1nc2ccccc2[nH]1)OC(=O)C1CC1	CACNA1I	inhibitor, FLIPR calcium	HEK293 with GCaMP6s-CAAX, Kir2.3	with: KCl at EC90	0.34 µM
O=C(O)c1cc2cc(Br)ccc2c(I)c1O	Glutamate NMDA receptor; Grin1/Grin2c (Rattus norvegicus, UniProt P35439+Q00961)	ion current, two-electrode voltage clamp	–	oocytes	5.93 µM
CSc1ncc(Br)c(C(=O)N[C@@H](CCC(=O)O)C(=O)N[C@@H](Cc2ccc3ccccc3c2)C(=O)N[C@@H](CC(C)C)C(=O)NC2CC2c2ccccc2)n1 (stereo partly shown)	APC (Homo sapiens, UniProt P25054)	ligand displacement, FP	–	–	0.5 µM
Oc1ccc(OCc2ccccc2)cc1	Tpo	enzyme activity, inhibitor, LC-MS/MS, refers to: monoiodotyrosine	rat thyroid microsomes	with: L-tyrosine substrate	10.2 µM and 7.52 µM
Cc1ccc(C(=O)Nc2ccc(S(=O)(=O)O)c3cc(S(=O)(=O)O)cc(S(=O)(=O)O)c23)cc1NC(=O)c1cccc(NC(=O)Nc2cccc(C(=O)Nc3cc(C(=O)Nc4ccc(S(=O)(=O)O)c5cc(S(=O)(=O)O)cc(S(=O)(=O)O)c45)ccc3C)c2)c1	Thiosulfate sulfurtransferase (TST, Bos taurus, UniProt P00586)	enzyme activity, inhibitor	–	Rho counter-screen	> 100 µM

A few entries again:
SMILES	target	assay	system	conditions	IC50
COc1ccc(CN2CCN(C(c3ccc(F)cc3)c3ccc(F)cc3)CC2)c(OC)c1OC	CACNA1I	inhibitor, FLIPR calcium	HEK293 with GCaMP6s-CAAX, Kir2.3	with: KCl at EC90	1.3 µM
OC1CCCc2ccc(OCc3ccccc3)cc21 (stereo not shown)	MAOB (Homo sapiens, UniProt P27338)	enzyme activity, inhibitor, fluorescence	–	–	0.249 µM
CC(=O)Oc1cc(-c2coc3cc(OC(C)=O)c(OC(C)=O)c(OC(C)=O)c3c2=O)cc(OC(C)=O)c1OC(C)=O	firefly luciferase	luminescence signal, luminescence counter-screen	cell-free, after ADP processing	up to 77 µM, with: ADP 1.25 µM, ATP 11.25 µM	no inhibition
Oc1cccnc1O	HDAC6	enzyme activity, inhibitor, SAMDI mass spectrometry	–	–	> 10 µM
